Measured values from different studies.
Lines come from different studies, so protocols differ. ± gives the spread as reported.

SMILES	organism	assay	test system	conditions	MIC
CC1(C)S[C@@H]2[C@H](NC(=O)[C@H](N)c3ccccc3)C(=O)N2[C@H]1C(=O)O	Lacticaseibacillus rhamnosus	broth microdilution	GG ATCC 53103, MRS medium	24 h, 37 °C	2.5 ± 0.9 µg/mL
Fc1cc(-c2nc3ccccc3[nH]2)ccc1OCc1cn(CCN2CCOCC2)nn1	Enterococcus faecalis	microbial growth, broth dilution	ATCC29212	–	> 256 µg/mL
OB(O)O	Aspergillus niger	broth macrodilution	ATCC 16888	with: zinc borate 9%	0.0058%
Fc1ccc2nc(-c3ccc(OCc4cn(CCN5CCOCC5)nn4)c(F)c3)[nH]c2c1	Enterococcus faecalis	microbial growth, broth dilution	ATCC29212	–	> 256 µg/mL
Oc1c(I)cc(Cl)c2cccnc12	Cryptococcus neoformans	–	H99 wild type	48 h, 30 °C, SC medium, with: CuSO4 0.01 mM	> 50 µM
Cc1ccc(S(=O)(=O)N2C(=O)CSC2c2ccccc2Cl)cc1 (stereo not shown)	Streptococcus pneumoniae	broth microdilution	ATCC 49619	–	64 µg/mL
Fc1cc(-c2nc3ccc(Cl)cc3[nH]2)ccc1OCCN1CCOCC1	Enterococcus faecalis	microbial growth, broth dilution	ATCC29212	–	> 256 µg/mL
Cc1ccc(S(=O)(=O)N2C(=O)CSC2c2ccccc2[N+](=O)[O-])cc1 (stereo not shown)	Streptococcus pneumoniae	broth microdilution	ATCC 49619	–	64 µg/mL
O=C(O)CN(CCN(CC(=O)O)CC(=O)O)CC(=O)O	Cryptococcus neoformans	microbial growth, broth dilution	–	48 h	> 100 µM
CC1(C)S[C@@H]2[C@H](NC(=O)[C@H](N)c3ccccc3)C(=O)N2[C@H]1C(=O)O	Streptococcus pneumoniae	broth microdilution	ATCC 49619	–	8 µg/mL
O=C(O)c1cn(C2CC2)c2cc(N3CCNCC3)c(F)cc2c1=O	Enterococcus faecalis	microbial growth, broth dilution	ATCC29212	–	1 µg/mL
Cc1ccc(S(=O)(=O)N2C(=O)CSC2c2cccc([N+](=O)[O-])c2)cc1 (stereo not shown)	Streptococcus pneumoniae	broth microdilution	ATCC 49619	–	128 µg/mL
CCN(CC)C(=S)SSC(=S)N(CC)CC	Cryptococcus neoformans	–	H99 wild type	48 h, 30 °C, SC medium, no added copper	25 µM

For quick reference, copied from above:
SMILES	organism	assay	test system	conditions	MIC
OB(O)O	Aspergillus niger	broth macrodilution	ATCC 16888	with: zinc borate 9%	0.0058%
